{"data": "Measurements of several laboratories", "note": "Each numbered part is a random draw from the data of one study; scales do not carry over between parts. Substitutions count along the parent as printed."}
{"data": "Series 1", "target": "CCND3, cyclin fold, Cln2 fusion (human)", "technique": "yeast growth competition, sequencing", "sample": "yeast", "notes": "weak parent motif", "baseline": "not given", "reading": "higher = stronger binding", "starting sequence": "WEE1 docking peptide (human); HKTFRKLRLFDTP; partner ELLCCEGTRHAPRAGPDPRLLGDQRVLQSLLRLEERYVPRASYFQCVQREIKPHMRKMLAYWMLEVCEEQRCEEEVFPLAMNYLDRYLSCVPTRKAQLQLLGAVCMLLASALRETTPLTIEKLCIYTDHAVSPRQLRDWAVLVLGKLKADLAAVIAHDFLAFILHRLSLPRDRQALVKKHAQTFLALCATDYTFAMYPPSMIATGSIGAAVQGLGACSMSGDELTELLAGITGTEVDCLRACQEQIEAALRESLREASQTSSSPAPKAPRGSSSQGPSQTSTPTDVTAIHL"}
{"Variant": "RKTFRKLRLFDTP [H1R]", "normalised enrichment score": 0.0923}
{"Variant": "HKTKRKLRLFDTP [F4K]", "normalised enrichment score": 0.155}
{"Variant": "HLTFRKLRLFDTP [K2L]", "normalised enrichment score": 0.118}
{"Variant": "HKTFRKLRLEDTP [F10E]", "normalised enrichment score": 0.0274}
{"Variant": "HKTFRKLRLLDTP [F10L]", "normalised enrichment score": 0.0581}
{"Variant": "HKTFEKLRLFDTP [R5E]", "normalised enrichment score": 0.146}
{"Variant": "HKTFRKHRLFDTP [L7H]", "normalised enrichment score": 0.0639}
{"Variant": "HKTFRTLRLFDTP [K6T]", "normalised enrichment score": 0.192}
{"Variant": "HKTFRKLALFDTP [R8A]", "normalised enrichment score": 0.0772}
{"Variant": "HKTFRKLRLFDTD [P13D]", "normalised enrichment score": 0.19}
{"Variant": "HGTFRKLRLFDTP [K2G]", "normalised enrichment score": 0.143}
{"Variant": "HKTFRKLRLFDTE [P13E]", "normalised enrichment score": 0.0647}
{"Variant": "HKTFRKLVLFDTP [R8V]", "normalised enrichment score": 0.122}
{"Variant": "HKTFRKLRLGDTP [F10G]", "normalised enrichment score": -0.0135}
{"data": "Series 2", "target": "ABI1, truncated, D143A, DHFR fusion (Arabidopsis thaliana)", "technique": "DHFR PCA, deep sequencing", "sample": "yeast", "notes": "methotrexate growth selection, single substitutions", "with": "(+)-ABA 1.4 µM", "baseline": "wild-type fitted maximum", "reading": "higher = stronger binding", "starting sequence": "PYL1, truncated, DHFR fusion (Arabidopsis thaliana); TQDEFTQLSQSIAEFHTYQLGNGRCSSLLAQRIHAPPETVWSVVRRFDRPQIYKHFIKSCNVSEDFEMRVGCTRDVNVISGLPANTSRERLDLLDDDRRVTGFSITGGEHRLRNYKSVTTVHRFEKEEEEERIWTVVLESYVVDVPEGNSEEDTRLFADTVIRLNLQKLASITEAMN; partner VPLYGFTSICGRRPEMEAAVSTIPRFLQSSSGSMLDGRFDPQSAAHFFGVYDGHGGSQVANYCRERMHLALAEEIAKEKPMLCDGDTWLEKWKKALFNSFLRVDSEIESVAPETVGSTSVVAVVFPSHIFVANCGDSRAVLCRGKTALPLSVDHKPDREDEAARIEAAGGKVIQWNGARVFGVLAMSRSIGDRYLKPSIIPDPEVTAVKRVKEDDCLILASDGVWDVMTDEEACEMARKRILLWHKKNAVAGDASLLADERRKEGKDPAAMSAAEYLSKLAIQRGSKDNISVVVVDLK"}
{"Variant": "G108V", "relative binding score": "-1.97%"}
{"Variant": "F157R", "relative binding score": "15.6%"}
{"Variant": "S104Y", "relative binding score": "-9.7%"}
{"Variant": "R113W", "relative binding score": "6.03%"}
{"Variant": "D48K", "relative binding score": "-8.53%"}
{"Variant": "E109H", "relative binding score": "16.6%"}
{"Variant": "N177H", "relative binding score": "74.4%"}
{"Variant": "L91E", "relative binding score": "-15.8%"}
{"data": "Series 3", "target": "Sal-like protein 4, full length isoform A (SALL4, Homo sapiens, UniProt Q9UJQ4, residues 1-1053)", "technique": "universal PBM", "molecule type": "double-stranded DNA, one strand shown", "sample": "in vitro", "tested at": "600 nM", "notes": "8-mer, flanks averaged, mean of replicates", "reading": "higher = stronger binding", "chain of UniProt Q9UJQ4 (whole entry, looked up)": "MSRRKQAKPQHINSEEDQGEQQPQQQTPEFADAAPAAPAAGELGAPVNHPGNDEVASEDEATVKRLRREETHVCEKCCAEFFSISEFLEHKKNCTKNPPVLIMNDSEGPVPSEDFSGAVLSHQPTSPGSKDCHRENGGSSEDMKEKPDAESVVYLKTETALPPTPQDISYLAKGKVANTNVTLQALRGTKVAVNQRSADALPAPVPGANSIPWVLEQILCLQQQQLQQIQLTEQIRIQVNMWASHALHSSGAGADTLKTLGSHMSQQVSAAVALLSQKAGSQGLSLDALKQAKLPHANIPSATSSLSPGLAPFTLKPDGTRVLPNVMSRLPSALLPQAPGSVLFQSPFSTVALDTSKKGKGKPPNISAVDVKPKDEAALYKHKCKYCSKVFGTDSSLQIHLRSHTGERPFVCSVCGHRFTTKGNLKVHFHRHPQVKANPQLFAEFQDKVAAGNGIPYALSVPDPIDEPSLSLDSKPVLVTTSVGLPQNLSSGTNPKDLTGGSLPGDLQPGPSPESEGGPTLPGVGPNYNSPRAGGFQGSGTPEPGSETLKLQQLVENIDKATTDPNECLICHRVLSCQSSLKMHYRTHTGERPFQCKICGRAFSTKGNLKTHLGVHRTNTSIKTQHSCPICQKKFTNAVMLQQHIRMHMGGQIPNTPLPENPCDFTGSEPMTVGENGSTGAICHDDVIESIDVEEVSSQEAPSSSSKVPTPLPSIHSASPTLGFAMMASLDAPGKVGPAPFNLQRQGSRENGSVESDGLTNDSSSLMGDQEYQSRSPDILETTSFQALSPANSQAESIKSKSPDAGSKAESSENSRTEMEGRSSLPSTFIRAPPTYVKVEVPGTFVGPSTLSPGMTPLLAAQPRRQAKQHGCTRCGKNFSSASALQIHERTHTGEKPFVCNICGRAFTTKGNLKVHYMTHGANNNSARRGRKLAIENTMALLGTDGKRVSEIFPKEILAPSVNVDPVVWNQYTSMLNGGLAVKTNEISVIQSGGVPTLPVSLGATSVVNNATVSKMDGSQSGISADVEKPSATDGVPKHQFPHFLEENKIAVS"}
{"Oligonucleotide": "ATTTCAAA", "E-score": 0.336}
{"Oligonucleotide": "CAGCAGAA", "E-score": -0.023}
{"Oligonucleotide": "CATCAGCA", "E-score": 0.0411}
{"Oligonucleotide": "ATCCCTTG", "E-score": -0.0616}
{"Oligonucleotide": "GCCCGGGC", "E-score": -0.258}
{"Oligonucleotide": "AAAGGGCA", "E-score": -0.0562}
{"Oligonucleotide": "ATCGGGTG", "E-score": -0.201}
{"Oligonucleotide": "ATTTCTCA", "E-score": 0.154}
{"Oligonucleotide": "GGATCGAA", "E-score": -0.0707}
{"Oligonucleotide": "CGGAGATC", "E-score": -0.259}
{"data": "Single results of other studies"}
{"Molecule": "PhoQ, residues 284 288 289 292 302 303 SSCCRF", "target": "PhoP, residues 12 14 15 18 19 QYCSL (Escherichia coli, UniProt P23836)", "test": "Sort-seq, refers to: YFP reporter", "test system": "E. coli", "setting": "PhoQ-PhoP variant library, with: 10 µM Mg2+", "how to read": "baseline: high Mg2+ state, higher = stronger signaling", "endpoint": "fold induction", "result": 12.1}
{"note": "Excerpt of the above (series 1):"}
{"Variant": "HKTFRKLRLEDTP [F10E]", "normalised enrichment score": 0.0274}
{"Variant": "HKTFRKLRLLDTP [F10L]", "normalised enrichment score": 0.0581}
{"Variant": "HKTFEKLRLFDTP [R5E]", "normalised enrichment score": 0.146}
{"Variant": "HKTFRKHRLFDTP [L7H]", "normalised enrichment score": 0.0639}
{"Variant": "HKTFRTLRLFDTP [K6T]", "normalised enrichment score": 0.192}
